Results collected from several papers.
Each line is one published result; not all experiments were run side by side. “And” joins repeats or separate records; there may be more than shown. ± marks the error that the study gave.
U2AF2: U2AF2 148-342 (Homo sapiens, UniProt P26368)
Sequence of UniProt P26368 (whole entry, looked up): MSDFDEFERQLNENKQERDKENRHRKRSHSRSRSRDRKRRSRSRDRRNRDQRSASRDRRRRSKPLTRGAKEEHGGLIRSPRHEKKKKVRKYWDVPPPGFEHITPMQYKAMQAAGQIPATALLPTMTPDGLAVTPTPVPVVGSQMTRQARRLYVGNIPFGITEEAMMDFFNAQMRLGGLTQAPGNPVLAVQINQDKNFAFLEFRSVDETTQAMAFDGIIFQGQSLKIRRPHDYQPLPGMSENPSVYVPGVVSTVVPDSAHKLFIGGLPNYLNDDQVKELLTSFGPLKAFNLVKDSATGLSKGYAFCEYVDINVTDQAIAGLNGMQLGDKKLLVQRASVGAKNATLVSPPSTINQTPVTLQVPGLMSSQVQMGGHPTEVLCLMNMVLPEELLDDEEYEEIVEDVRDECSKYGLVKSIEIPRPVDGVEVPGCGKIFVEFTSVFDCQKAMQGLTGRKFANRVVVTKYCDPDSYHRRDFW
B1: human thioredoxin; sequence looked up; chain VKQIESKTAFQEALDAAGDKLVVVDFSATWCGPCKMIKPFFHSLSEKYSNVIFLEVDVDDCQDVASECEVKCMPTFQFFKKGQKVGEFSGANKEKLEATINELV
B2: PRPS3 (human); sequence looked up; chain PNIKIFSGSSHQDLSQKIADRLGLELGKVVTKKFSNQETCVEIDESVRGEDVYIVQSGCGEINDSLMELLIMINACKIASASRVTAVIPCFPYARQDKKDKSRSPISAKLVANMLSIAGADHIITMDLHASQIQGFFDIPVDNLYAEPTVLKWIRENIPEWKNCIIVSPDAGGAKRVTSIADQLNVDFALIHKERKKANEVDCIVLVGDVNDRVAILVDDMADTCVTICLAADKLLSAGATRVYAILTHGIFSGPAISRINTACFEAVVVTNTIPQDEKMKHCSKIRVIDISMILAEAIRRTHNGESVSYLFSHVPL
B3: human AP2B1; sequence looked up; chain TDSKYFTTNKKGEIFELKAELNNEKKEKRKEAVKKVIAAMTVGKDVSSLFPDVVNCMQTDNLELKKLVYLYLMNYAKSQPDMAIMAVNSFVKDCEDPNPLIRALAVRTMGCIRVDKITEYLCEPLRKCLKDEDPYVRKTAAVCVAKLHDINAQMVEDQGFLDSLRDLIADSNPMVVANAVAALSEISESHPNSNLLDLNPQNINKLLTALNECTEWGQIFILDCLSNYNPKDDREAQSICERVTPRLSHANSAVVLSAVKVLMKFLELLPKDSDYYNMLLKKLAPPLVTLLSGEPEVQYVALRNINLIVQKRPEILKQEIKVFFVKYNDPIYVKLEKLDIMIRLASQANIAQVLAELKEYATEVDVDFVRKAVRAIGRCAIKVEQSAERCVSTLLDLIQTKVNYVVQEAIVVIRDIFRKYPNKYESIIATLCENLDSLDEPDARAAMIWIVGEYAERIDNADELLESFLEGFHDESTQVQLTLLTAIVKLFLKKPSETQELVQQVLSLATQDSDNPDLRDRGYIYWRLLSTDPVTAKEVVLSEKPLISEETDLIEPTLLDELICHIGSLASVYHKPPNAFVEGSHGIHRKHLPIHHGSTDAGDSPVGTTTATNLEQPQVIPSQGDLLGDLLNLDLGPPVNVPQVSSMQMGAVDLLGGGLDSLVGQSFIPSSVPATFAPSPTPAVVSSGLNDLFELSTGIGMAPGGYVAPKAVWLPAVKAKGLEISGTFTHRQGHIYMEMNFTNKALQHMTDFAIQFNKNSFGVIPSTPLAIHTPLMPNQSIDVSLPLNTLGPVMKMEPLNNLQVAVKNNIDVFYFSCLIPLNVLFVEDGKMERQVFLATWKDIPNENELQFQIKECHLNADTVSSKLQNNNVYTIAKRNVEGQDMLYQSLKLTNGIWILAELRIQPGNPNYTLSLKCRAPEVSQYIYQVYDSILKN
B4: Protein S100-A9 (human); sequence looked up; chain MTCKMSQLERNIETIINTFHQYSVKLGHPDTLNQGEFKELVRKDLQNFLKKENKNEKVIEHIMEDLDTNADKQLSFEEFIMLMARLTWASHEKMHEGDEGPGHHHKPGLGEGTP
Sequence of UniProt Q00535 (whole entry, looked up): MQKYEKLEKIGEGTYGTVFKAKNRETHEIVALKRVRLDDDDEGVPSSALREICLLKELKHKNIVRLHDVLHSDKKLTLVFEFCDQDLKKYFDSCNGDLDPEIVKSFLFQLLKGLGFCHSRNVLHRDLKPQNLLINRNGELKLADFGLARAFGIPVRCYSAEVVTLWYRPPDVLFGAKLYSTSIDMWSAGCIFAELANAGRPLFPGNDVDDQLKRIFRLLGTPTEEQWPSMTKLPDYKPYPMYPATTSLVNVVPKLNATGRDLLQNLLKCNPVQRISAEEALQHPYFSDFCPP

| Substance | tested on | test | test system | setting | how to read | quantity | result |
| --- | --- | --- | --- | --- | --- | --- | --- |
| MTVCNASQRQAHAQATAVSL | H1819 | phage binding | peptide |  | baseline: targeting over control phage | selectivity ratio | 3.1 ± 2.7 |
| milbemycin oxime | Saccharomyces cerevisiae | cell growth | Pdr5 deleted, Cdr1 overexpressed | 2^-4.966 µg/mL, added: fluconazole 1 µg/mL |  | OD600 | 0.677 and 0.589 and 0.637 |
| KPGKGSETVV | construct, MBP fusion, human SCRIB, PDZ 3-4 | automated holdup | peptide, purified PDZ protein | concentration not given, unit not given | baseline: biotin control resin, higher = stronger binding | binding intensity | 0.0542 |
| B1 (human thioredoxin) | PP6C (human) | co-immunoprecipitation, IP-MS | CYB5R4 knockout cells | concentration not given | baseline: CYB5R4 knockout over parental | log2 fold change | 0.74 |
| KEAFFDRCLSVINLMSSKMLQINA | Cyclin-dependent kinase 5, with p25 (CDK5, Homo sapiens, UniProt Q00535) | phosphotransferase activity, radiometric | peptide | concentration not given, 10% DMSO, added: histone substrate | baseline: p5-WT peptide | activity change | 16% |
| B2 (PRPS3) | CYB5R4 knockout human cells | PP6 interaction, 3xFLAG-PP6C IP-MS |  | concentration not given | baseline: CYB5R4 KO over parental | log2 fold change | -2.43 |
| liraglutide |  |  | Wistar rat, female, diet-induced obese, blood, fasted | subcutaneous, dose not given, after 4 weeks treatment |  | serum HDL cholesterol | 25 ± 1.4 mg/dL |
| EKPIDSETKM | construct, MBP fusion, human SCRIB, PDZ 3-4 | automated holdup | peptide, crude extract | concentration not given, uncorrected, unit not given | baseline: biotin control resin, higher = stronger binding | binding intensity | 0.156 |
| human DIP2A | CYB5R4 knockout human cells | PP4 interaction, 3xFLAG-PP4C IP-MS |  | concentration not given | baseline: CYB5R4 KO over parental | log2 fold change | 2.15 |
| Peginesatide | UT7/EPO | tyrosine phosphorylation, LC-MS/MS phosphoproteomics, trypsin, item: FCGR2A tyrosine 304 |  | 10 nM, 15 min, added: 10 U/mL EPO | baseline: vehicle | phosphorylation level | 2.7 fold |
| B3 (human AP2B1) | CYB5R4 knockout human cells | PP4 interaction, 3xFLAG-PP4C IP-MS |  | concentration not given | baseline: CYB5R4 KO over parental | log2 fold change | 0.19 |
| AUUUCUUUC (ssRNA) | U2AF2 | sequencing of bound RNA | RNA | motif only |  | Kd | 310 nM |
| B4 (Protein S100-A9) | PP6C (human) | co-immunoprecipitation, IP-MS | CYB5R4 knockout cells | concentration not given | baseline: CYB5R4 knockout over parental | log2 fold change | 1.45 |
| cotadutide |  | metabolomics, item: hepatic tryptophan | ob/ob mice on AMLN diet, NASH model, liver | dose not given |  | metabolite level | 1.03 ± 0.07 scaled intensity |
| Nisin | Bacillus subtilis |  | ATCC 6633 | concentration not given |  | nucleoid perimeter | 3.84 µm and 4.32 µm and 3.98 µm |
| NRVDSKETEC | construct, MBP fusion, human SCRIB, PDZ 3-4 | automated holdup | peptide, crude extract | concentration not given, uncorrected, unit not given | baseline: biotin control resin, higher = stronger binding | binding intensity | 0.277 |
| UAUUUUUCC (ssRNA) | U2AF2 | sequencing of bound RNA | RNA | motif only |  | Kd | 1460 nM |
| SEKHFRETEV | construct, MBP fusion, human SCRIB, PDZ 3-4 | automated holdup | peptide, purified PDZ protein | concentration not given, unit not given | baseline: biotin control resin, higher = stronger binding | binding intensity | 0.804 |
| colistin | Pseudomonas aeruginosa |  | clinical isolate RKI 47/09 |  |  | MIC | ≤ 0.5 µg/mL |
